# Measured values collected from several papers.
# A part holds a random share of what one study measured. Positions count from the first letter of the parent shown.

# Set 1
# Target: RING finger protein unkempt homolog, zinc fingers 1-6, SBP tag (UNK, Homo sapiens, UniProt Q9C0B0, residues 30-357)
# Sequence of UniProt Q9C0B0 (30-357, looked up): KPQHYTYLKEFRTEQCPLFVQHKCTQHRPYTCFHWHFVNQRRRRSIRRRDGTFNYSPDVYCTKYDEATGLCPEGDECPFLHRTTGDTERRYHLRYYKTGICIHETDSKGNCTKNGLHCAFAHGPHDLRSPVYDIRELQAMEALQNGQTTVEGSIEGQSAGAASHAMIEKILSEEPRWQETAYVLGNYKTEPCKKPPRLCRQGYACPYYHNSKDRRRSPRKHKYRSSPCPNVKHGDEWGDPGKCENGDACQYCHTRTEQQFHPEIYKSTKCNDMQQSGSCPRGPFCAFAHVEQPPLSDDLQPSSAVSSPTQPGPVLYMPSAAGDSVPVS
# Technique: RNA Bind-n-Seq
# Form: RNA
# Sample: in vitro
# Tested at: 100 nM
# Setting: RNA with constant flanks, vertebrate orthologous sites, ends assumed
# Relative to: input RNA pool
# Direction: higher = stronger binding
# All sequences stand within: GGGAGUUCUACAGUCCGACGAUC … CAACAGAGGAUUGAGCAUCA
Oligonucleotide,bound/input enrichment [ratio]
UUUUAUUGAUCAGGUCUGUAAAUGUGUACUAAAAAAAUCAGAGUUUAUUUAUAAACAGAAUAGUUUAUUUAAGAAAAACUCUUUCCUCACCGACCUUGUGGUAUGCAUUAAUUCCAUUUG,0.0814
CAACUAUUCUUUCUUAAAUCACAACACUGAAUGCGAAGUAGAACCUUUUUUAGUCACAGUAACUUAGUUUUAGGCCCAUACUGCAGUGAUUUUAUUUCUAUGCAGAUUUUGGAAAAUGUA,2.77
AGCUUCUGGCGACAUUUGGCCUGGCCUUUCAGCAUAUGAUAACAGUCCAAGGUCACCCCAUAGUCCCUCUAUUGCCUCCCCACCUAGUCAGAGUUCAUCUUGCUCUGAUGCCCCUUUGCU,0.688
AUGUAGUUUGUUUUUAAUUUCAAGCAAAAUCUUACUGUACUUGAAUGUGCCCUGUUUUGUUAGCACACCUAGACUUGCUGUAACUGUACUCAUGUCCCAGUAUGUACGUUCUUUCUAUGA,0.838
AUAGGAGCAGCAUAGGCUGUUUGAGCUUUGGGGUAAUGAGCUUUGCUUUUUAUAUUUAAAUAGGAUACUUUUAUAUGAUGGGUGCUUUGAGUGUGAAUGCAGCAGGCUGUCCAUUUCAGA,1.58
UAUAAGAACUCUUGCAGUCUUAGAUGUUAUAAAAAUAUAUAUCUGAAUUGUAAGAGUUGUUAGCACAGUUUUUUUUUAAGCUCUUGUUUUGGGUACAAGGCAUUUCUGAAAUUUUGUAAA,0.247
GGCUCCUCCCCUGGGCCCAUGCUGCCCUCCUGUGCCCUGCCGGGCCUCGAGGACCUGCGUUUCAAACAUUUUGUAACCUGCUGUCCAAGGGGAGGUGUGUCUGGAGUGCAUCUCGGAGCC,0.269
ACUACCCCAGUCGUACUGUGUUGGGUUGGCAUUGUACAGAAAUUAACAGCCAUAUUGGUCUAGAAAUGUUAAACACAAUUUUUUCCAUUUGUACAGGGGUAACGCGCUGUAUUAAAUGUG,0.516

# Set 2
# Target: PABPC1L2, full length, GST fusion (mouse, UniProt A0ABA7IW68)
# Technique: RNAcompete
# Form: RNA
# Sample: in vitro
# Tested at: 20 nM
# Setting: 7-mer, probes averaged, single round
# Relative to: mean of 7-mers
# Direction: higher = stronger binding
# Target sequence (chain): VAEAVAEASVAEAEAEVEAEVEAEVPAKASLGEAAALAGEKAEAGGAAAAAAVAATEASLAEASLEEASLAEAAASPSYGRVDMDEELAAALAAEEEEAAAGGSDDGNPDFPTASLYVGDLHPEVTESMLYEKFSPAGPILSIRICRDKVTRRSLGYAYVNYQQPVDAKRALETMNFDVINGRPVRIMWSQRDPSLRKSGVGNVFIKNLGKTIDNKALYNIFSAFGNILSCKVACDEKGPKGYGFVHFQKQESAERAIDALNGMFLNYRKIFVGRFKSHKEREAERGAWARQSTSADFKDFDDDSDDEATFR
Oligonucleotide,7-mer Z-score
ACCCCUU,-0.349
AAGAACU,0.526
UCCGGCA,-0.175
CAUUUCC,-0.416
CAAAUGC,0.117
CUACCCA,-0.248
GUUUCCA,-0.324
AUUGGUU,-0.242
GGACAUU,-0.104
CUCCGGG,-0.113
GGCGACA,0.318
CACGUUU,-0.411
CUGCCGU,-0.394
AUCUUUA,0.129
CACGCGC,-0.353
GACUCCG,-0.269
UUCGGGG,-0.0283
AUUUAAG,0.253
AGAGUCC,-0.336
CGAUCUA,-0.0718
CAACACC,0.00979
UGGCUGA,0.00436
AAAAAAA,17.6

# Set 3
# Organism: Saccharomyces cerevisiae
# Read-out: binding
# Technique: competitive growth deep sequencing
# Form: peptide
# Strain: cyclin D3-Cln2 fusion strain
# Tested at: concentration not given
# Setting: peptide tiling library
# Direction: direction not given
Molecule,growth enrichment score
IFNKPECGRVQRAIFQ,-0.0582
TLPYDLACTGGDFVLF,-0.276
PKNAKRNLSSEFAN,-0.443
TSSAQRRLEIPSGGAD,0.388
IPMIAKNLMCELDE,0.698
PKRAKRKLYTSEISSP,-0.259
MNQELLSVGSKRRRTG,-1.42
TQERKQIHCLSEDELS,0.265
GTPKRCLDLSNLSSGE,2.31

# Set 4
# Target: CEP164, C-terminal peptide (human)
# Technique: DHFR complementation, deep sequencing
# Sample: yeast
# Setting: single substitutions, model-inferred values
# Relative to: wild type
# Direction: higher = weaker binding
# Starting sequence: PDZK1, PDZ domain 2 (human); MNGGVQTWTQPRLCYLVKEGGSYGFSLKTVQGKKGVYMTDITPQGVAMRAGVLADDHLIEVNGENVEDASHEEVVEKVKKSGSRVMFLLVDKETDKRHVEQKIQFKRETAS; partner HNRVKVYRF
Substitution,binding free energy change
S81H,0.658 kcal/mol
Y23Q,1.3 kcal/mol
T39N,0.637 kcal/mol
D55A,0.502 kcal/mol
K80I,0.652 kcal/mol
Q6N,-0.0245 kcal/mol
S81T,0.462 kcal/mol
Y23C,1.49 kcal/mol
V61A,0.58 kcal/mol
G35A,0.202 kcal/mol
H98A,-0.096 kcal/mol
H57A,-0.245 kcal/mol
F25A,1.6 kcal/mol
A69V,-0.269 kcal/mol
F25G,1.77 kcal/mol

# For quick reference, copied from above (set 4):
Substitution,binding free energy change
H98A,-0.096 kcal/mol
A69V,-0.269 kcal/mol
H57A,-0.245 kcal/mol
V61A,0.58 kcal/mol
Q6N,-0.0245 kcal/mol
D55A,0.502 kcal/mol
K80I,0.652 kcal/mol
S81T,0.462 kcal/mol
F25G,1.77 kcal/mol
